Measured values pooled from the literature.
Numbered parts are unrelated; each lists some results of a single study. “And” joins repeats or separate records; there may be more than shown.
Chain of UniProt P42679 (whole entry, looked up): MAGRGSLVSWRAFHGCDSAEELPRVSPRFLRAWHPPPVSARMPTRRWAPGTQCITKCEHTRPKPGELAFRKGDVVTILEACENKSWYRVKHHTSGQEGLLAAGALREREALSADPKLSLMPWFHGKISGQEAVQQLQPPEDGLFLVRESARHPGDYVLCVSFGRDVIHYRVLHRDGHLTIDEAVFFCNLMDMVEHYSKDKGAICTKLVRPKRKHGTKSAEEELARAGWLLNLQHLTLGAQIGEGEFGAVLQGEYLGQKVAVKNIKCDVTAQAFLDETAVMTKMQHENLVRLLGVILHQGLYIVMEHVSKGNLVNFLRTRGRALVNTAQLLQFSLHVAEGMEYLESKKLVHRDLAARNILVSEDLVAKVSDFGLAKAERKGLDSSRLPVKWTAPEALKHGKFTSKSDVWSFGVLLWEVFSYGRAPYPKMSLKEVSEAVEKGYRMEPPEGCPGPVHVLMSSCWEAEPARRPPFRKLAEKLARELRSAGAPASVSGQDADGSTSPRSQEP
Chain of UniProt P06241 (whole entry, looked up): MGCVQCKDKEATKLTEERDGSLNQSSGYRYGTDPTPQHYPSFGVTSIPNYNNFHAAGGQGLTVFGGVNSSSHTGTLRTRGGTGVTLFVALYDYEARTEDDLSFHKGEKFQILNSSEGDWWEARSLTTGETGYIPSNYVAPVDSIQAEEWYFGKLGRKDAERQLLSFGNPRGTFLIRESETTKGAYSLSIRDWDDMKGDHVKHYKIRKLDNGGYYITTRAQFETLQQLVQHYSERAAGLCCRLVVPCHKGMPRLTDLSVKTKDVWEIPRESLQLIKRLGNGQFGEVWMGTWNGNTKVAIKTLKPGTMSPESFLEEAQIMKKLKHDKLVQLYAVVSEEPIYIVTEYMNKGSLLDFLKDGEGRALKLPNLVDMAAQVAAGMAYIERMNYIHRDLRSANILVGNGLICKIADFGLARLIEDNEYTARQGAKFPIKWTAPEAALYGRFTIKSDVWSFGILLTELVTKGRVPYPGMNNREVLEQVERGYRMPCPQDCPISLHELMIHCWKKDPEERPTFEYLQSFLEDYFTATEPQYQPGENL
Chain of UniProt Q08881 (whole entry, looked up): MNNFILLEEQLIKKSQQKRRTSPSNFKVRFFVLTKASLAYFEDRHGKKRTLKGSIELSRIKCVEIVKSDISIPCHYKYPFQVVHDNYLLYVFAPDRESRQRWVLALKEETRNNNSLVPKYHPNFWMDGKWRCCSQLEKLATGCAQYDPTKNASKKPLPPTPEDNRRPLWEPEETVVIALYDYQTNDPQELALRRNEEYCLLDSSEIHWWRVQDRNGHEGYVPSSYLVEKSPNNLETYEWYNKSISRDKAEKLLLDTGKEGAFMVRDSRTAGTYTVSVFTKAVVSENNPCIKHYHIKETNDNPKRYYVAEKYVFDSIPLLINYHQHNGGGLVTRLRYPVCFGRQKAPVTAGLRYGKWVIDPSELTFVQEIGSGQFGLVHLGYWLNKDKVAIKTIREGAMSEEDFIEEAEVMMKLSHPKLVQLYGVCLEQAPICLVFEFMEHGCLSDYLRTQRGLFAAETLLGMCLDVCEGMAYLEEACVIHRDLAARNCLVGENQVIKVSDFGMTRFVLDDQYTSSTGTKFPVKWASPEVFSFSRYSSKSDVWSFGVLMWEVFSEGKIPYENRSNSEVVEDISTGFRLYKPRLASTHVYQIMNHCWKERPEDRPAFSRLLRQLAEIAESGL
Chain of UniProt P53667 (whole entry, looked up): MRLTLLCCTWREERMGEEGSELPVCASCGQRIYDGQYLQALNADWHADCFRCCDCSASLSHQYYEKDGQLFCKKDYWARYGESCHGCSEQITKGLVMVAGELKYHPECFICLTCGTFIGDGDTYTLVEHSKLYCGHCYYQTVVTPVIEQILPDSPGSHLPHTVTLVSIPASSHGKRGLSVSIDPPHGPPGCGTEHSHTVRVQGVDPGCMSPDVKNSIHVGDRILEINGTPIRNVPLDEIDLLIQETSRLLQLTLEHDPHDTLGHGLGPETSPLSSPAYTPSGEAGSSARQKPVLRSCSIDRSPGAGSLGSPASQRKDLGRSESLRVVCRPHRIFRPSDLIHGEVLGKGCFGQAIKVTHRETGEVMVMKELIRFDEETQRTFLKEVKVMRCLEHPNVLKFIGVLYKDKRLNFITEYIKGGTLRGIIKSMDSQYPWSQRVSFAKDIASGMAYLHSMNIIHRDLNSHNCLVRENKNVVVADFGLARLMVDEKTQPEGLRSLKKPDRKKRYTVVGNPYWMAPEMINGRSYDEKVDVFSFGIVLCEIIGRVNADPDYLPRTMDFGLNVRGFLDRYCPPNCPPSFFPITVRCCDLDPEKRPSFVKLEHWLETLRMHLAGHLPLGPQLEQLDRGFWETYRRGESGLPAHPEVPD

Sample 1 — read-out: binding; method: radioligand binding; tested at: 10 µM; measurement: inhibition
Target: Mu-type opioid receptor (OPRM1, Homo sapiens, UniProt P35372)
Chain of UniProt P35372 (whole entry, looked up): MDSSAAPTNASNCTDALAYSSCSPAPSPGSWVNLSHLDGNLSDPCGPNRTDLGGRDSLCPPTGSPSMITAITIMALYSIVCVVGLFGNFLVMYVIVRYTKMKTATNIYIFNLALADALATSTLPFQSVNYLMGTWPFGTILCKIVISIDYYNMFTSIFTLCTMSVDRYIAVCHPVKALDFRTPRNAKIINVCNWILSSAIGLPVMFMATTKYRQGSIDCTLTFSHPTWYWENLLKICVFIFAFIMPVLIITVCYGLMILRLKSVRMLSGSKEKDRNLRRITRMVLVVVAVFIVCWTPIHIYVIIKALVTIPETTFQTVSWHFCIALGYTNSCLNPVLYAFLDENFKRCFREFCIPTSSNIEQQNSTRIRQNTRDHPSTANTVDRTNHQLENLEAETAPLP
CC(C)(O)c1cncc(-c2nc3ccc(F)cc3n2C2CC2)c1: 0.18%
Cc1cc(C)c(-n2ccn3nc(-c4cccnc4)cc23)cc1NC(=O)c1cc(C#N)cc(S(F)(F)(F)(F)F)c1: 20.7%
CC(C)CC(=O)N1CCc2nc(-c3ccc(Br)cc3)nc(N(C)Cc3ccccc3)c2C1: -0.75%
Nc1c(C(=O)NCc2ccc(C(=O)NCCCC3CCCCC3)cc2)cnn1-c1ccccc1: 41.2%
O=C([C@H]1C[C@H](O)CN1c1ccc(Cl)cc1)N1CC2COCC(C1)N2Cc1ccc(Cl)cc1: 4.45%
Cc1nc(C2CCN(C(=O)c3ccc(OC(F)(F)F)cc3N)CC2)c2ncc(N3CCN(C)CC3)cc2n1: -1.66%
COCc1nc2cnc3cc(-c4c(C)noc4C)c(OC[C@H]4CCNC4)cc3c2n1[C@H](C)c1ccccc1: 16.9%
CC1=C(C#N)[C@@H](c2ccc3[nH]nc(C)c3c2)C(C#N)=C(c2ccc(Cl)cc2)N1: -0.0207%
CCCOc1ccc([C@H]2[C@H](C(=O)O)[C@@H](c3ccc4c(c3)OCO4)CN2CC(=O)Nc2c(CC)cccc2CC)cc1: 6.79%
CNC(=O)Nc1ccc2c(c1)[C@]1(CC2)OC(=O)N(CC(=O)N(Cc2ccc(F)cc2)[C@@H](C)C(F)(F)F)C1=O: -5.11%
Cc1c(N2CCCC2)nc2ccc(Br)cc2c1C(=O)NC[C@H](CCC(=O)O)c1ccccc1Cl: 11.7%
COc1nc2ccc([C@@](O)(c3ccccc3)C3CCN(C(C)=O)CC3)cc2c(Cl)c1Cc1ccc(-n2cccn2)cc1: 25.6%
O=C(Nc1cnc(Oc2ccc(F)cc2)nc1)N1CCc2ncccc2[C@@H]1c1ccc(F)cc1: 28.1%

Sample 2 — read-out: enzyme activity; action: inhibitor; tested at: 0.5 µM; relative to: control; measurement: remaining activity
SMILES: N/C(=N\[N+](=O)[O-])N/N=C\c1ccc(-c2cccc([N+](=O)[O-])c2)o1
ITK (Homo sapiens, UniProt Q08881): 99.5%
LIM domain kinase 1 (LIMK1, Homo sapiens, UniProt P53667): 99.7%
FYN (Homo sapiens, UniProt P06241): 101%
MATK (Homo sapiens, UniProt P42679): 94.3%

Sample 3 — read-out: binding; method: phage display NGS; form: peptide; tested at: concentration not given; notes: panning round 2; relative to: input library; measurement: enrichment fold change
Target: UDP-N-acetylglucosamine--peptide N-acetylglucosaminyltransferase 110 kDa subunit (OGT, Homo sapiens, UniProt O15294)
Residues (O15294 1-1046): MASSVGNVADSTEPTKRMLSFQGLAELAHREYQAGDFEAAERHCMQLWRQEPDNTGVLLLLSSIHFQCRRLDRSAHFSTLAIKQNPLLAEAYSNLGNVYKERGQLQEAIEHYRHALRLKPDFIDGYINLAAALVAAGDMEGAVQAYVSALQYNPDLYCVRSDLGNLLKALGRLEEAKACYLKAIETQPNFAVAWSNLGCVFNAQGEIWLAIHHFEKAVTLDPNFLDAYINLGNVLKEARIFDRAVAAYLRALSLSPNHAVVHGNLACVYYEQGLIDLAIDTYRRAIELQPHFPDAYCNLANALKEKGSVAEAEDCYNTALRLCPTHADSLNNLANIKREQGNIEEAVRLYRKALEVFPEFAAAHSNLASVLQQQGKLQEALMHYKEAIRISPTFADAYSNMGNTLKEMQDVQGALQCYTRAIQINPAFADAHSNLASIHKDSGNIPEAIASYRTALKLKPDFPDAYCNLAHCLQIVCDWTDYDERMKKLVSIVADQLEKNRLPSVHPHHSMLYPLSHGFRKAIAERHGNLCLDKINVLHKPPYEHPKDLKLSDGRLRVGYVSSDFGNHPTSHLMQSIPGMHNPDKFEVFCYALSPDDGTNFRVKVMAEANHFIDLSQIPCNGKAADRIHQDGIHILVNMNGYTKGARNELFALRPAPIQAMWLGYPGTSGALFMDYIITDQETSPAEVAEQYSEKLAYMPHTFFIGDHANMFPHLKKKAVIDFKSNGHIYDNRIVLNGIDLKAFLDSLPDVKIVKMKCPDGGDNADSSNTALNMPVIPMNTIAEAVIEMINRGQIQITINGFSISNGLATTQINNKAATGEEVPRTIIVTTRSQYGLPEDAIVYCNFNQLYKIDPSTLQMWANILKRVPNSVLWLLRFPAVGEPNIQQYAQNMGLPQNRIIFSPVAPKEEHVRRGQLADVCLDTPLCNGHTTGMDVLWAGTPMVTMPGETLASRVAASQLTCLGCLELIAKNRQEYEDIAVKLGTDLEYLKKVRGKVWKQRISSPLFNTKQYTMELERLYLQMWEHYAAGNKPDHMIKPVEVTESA
GPMQMFQPYYQIDYA: 9.05
DTRWVPSYQIKYSYM: 5.11
STYTPFYPIKFWANR: 6.33
HMGMHQVLRIHQIHG: 5.89
HPHPPHPHGFDTHHV: 10.6
YNIYNPAYQIAYKF: 7.72
QNDRYLPAYVITYAR: 119
QKPMLFLPQYIIVAN: 87

Sample 4 — measurement: clonogenic survival
Structure (SMILES): O=C(c1cc(Cc2n[nH]c(=O)c3ccccc23)ccc1F)N1CCN(C(=O)C2CC2)CC1
CAPAN-1 (BRCA2-mutant); 1 µM: 16.2% and 17.5%
CAPAN-1 BRCA2-corrected; 0.25 µM: 90.3% and 72.6%
CAPAN-1 (BRCA2-mutant); 0.5 µM: 22.3% and 33.3%
